Experimental data of several laboratories.
Each line is one published result; not all experiments were run side by side. Values joined by “and” are separate records of one study, mostly repeats; a detail may differ. In brackets after ≈: the same amount, converted by molar mass.
Organism: Escherichia coli

CCCCCCCCCCCC[N+](C)(C)Cc1ccccc1  IC50 (bacterial survival, bioluminescence; bioluminescent; 1 h, dark): 21 µM
CCn1cc(C(=O)O)c(=O)c2cc(F)c(N3CCNCC3)cc21  MIC fold increase (ATCC 25922; 30 generations; relative to: generation 1 MIC): 128 fold
CC[C@H](C)[C@H](NC(=O)[C@H](Cc1c[nH]c2ccccc12)NC(=O)[C@@H](NC(=O)[C@H](Cc1ccc(O)cc1)NC(=O)[C@@H]1CCCN1C(=O)[C@@H](NC(=O)[C@H](C)N)[C@@H](C)CC)[C@@H](C)CC)C(=O)N[C@@H](Cc1ccc(O)cc1)C(=O)N[C@@H](CCCNC(=N)N)C(=O)N[C@@H](CC(C)C)C(=O)N[C@@H](CC(C)C)C(=O)N[C@@H](CCCNC(=N)N)C(=O)N[C@@H](CCCCN)C(=O)NCC(N)=O  MBC (D31; 18 h, 37 °C): > 15 µM
COc1ccc2c(ccc3oc([N+](=O)[O-])c(C)c32)c1  MIC90 (REMA): > 32 µg/mL
Cc1cc(-c2cn[nH]c2-c2cccc(OCc3cccc(C#N)c3)c2)cc(C)n1  MIC50 (multidrug-resistant clinical isolates): 1 to 2 µg/mL (≈ 2.63 to 5.26 µM)
C[C@@H](O)[C@H]1C(=O)N2C(C(=O)O)=C(SCCN=CN)C[C@H]12  MIC fold reduction (checkerboard; carbapenem-resistant; concentration not given, together with: anionic gold nanoparticle 8 µg/mL; relative to: MIC alone over combination): 32 fold
O=C(O)c1cn(C2CC2)c2cc(N3CCNCC3)c(F)cc2c1=O  passages to resistance (ATCC 25922): 3 passages
CC(C)[C@@H]1NC(=O)CNC(=O)[C@H](CC(N)=O)NC(=O)[C@H](CCCNC(=N)N)NC(=O)[C@H](Cc2ccc(O)cc2)NC(=O)[C@H](C(C)C)NC(=O)[C@@H](NC(=O)[C@@H](NC(=O)[C@H](CC(N)=O)NC(=O)[C@H](Cc2c[nH]c3ccccc23)NC(=O)[C@H](C)NC(=O)[C@H](Cc2ccccc2)NC(=O)CN)C(C)C)CSSC[C@@H](C(=O)N[C@@H](Cc2c[nH]cn2)C(=O)N[C@@H](CCCNC(=N)N)C(=O)N[C@@H](CCCNC(=N)N)C(=O)N[C@@H](C)C(=O)N[C@@H](CC(N)=O)C(N)=O)NC(=O)[C@H](C(C)C)NC(=O)[C@H](CCCNC(=N)N)NC1=O  EC50 (bactericidal activity; CGMCC 1.9; 24 h): 1.36 µM
CC[C@H](C)[C@H](NC(=O)[C@H](CCCNC(=N)N)NC(=O)[C@H](CCCNC(=N)N)NC(=O)[C@@H](N)CCCNC(=N)N)C(=O)N[C@@H](CO)C(=O)N[C@@H](Cc1ccccc1)C(=O)N[C@@H](CC(C)C)C(=O)NCC(=O)N[C@@H](CO)C(=O)N[C@@H](CCCCN)C(=O)N[C@H](C(=O)N[C@H](C(=O)N[C@H](C(=O)N[C@@H](CCCNC(=N)N)C(=O)N[C@@H](CCCNC(=N)N)C(=O)N[C@@H](CCCCN)C(=O)N[C@@H](CCCNC(=N)N)C(N)=O)C(C)C)C(C)C)C(C)C  FICI (checkerboard; unit not given, together with: rifampicin; lower means synergy): 0.16
COC(=O)c1ccc2c(ccc3oc([N+](=O)[O-])cc32)c1  MIC90 (REMA): > 32 µg/mL
CC[C@H](C)[C@H](NC(=O)CNC(=O)[C@H](CC(=O)O)NC(=O)[C@H](CCCNC(=N)N)NC(=O)[C@@H](NC(=O)[C@H](CC(N)=O)NC(=O)[C@H](CCCNC(=N)N)NC(=O)CNC(=O)[C@@H](NC(=O)[C@H](CCCCN)NC(=O)[C@H](CCC(=O)O)NC(=O)[C@@H](NC(=O)[C@H](CCCCN)NC(=O)[C@H](CCCCN)NC(=O)[C@H](Cc1ccccc1)NC(=O)[C@@H](NC(=O)[C@H](CCCCN)NC(=O)[C@H](Cc1c[nH]c2ccccc12)NC(=O)[C@@H](N)CCCNC(=N)N)[C@@H](C)CC)[C@@H](C)CC)C(C)C)C(C)C)C(=O)N[C@H](C(=O)N[C@@H](CCCCN)C(=O)N[C@@H](C)C(=O)NCC(=O)N1CCC[C@H]1C(=O)N[C@@H](C)C(=O)N[C@H](C(=O)N[C@@H](C)C(=O)N[C@H](C(=O)N[C@H](C(=O)NCC(=O)N[C@@H](CCC(N)=O)C(=O)N[C@@H](C)C(=O)N[C@@H](C)C(=O)N[C@H](C(=O)N[C@H](C(=O)N[C@H](C(=O)N[C@@H](CCCCN)C(N)=O)C(C)C)C(C)C)[C@@H](C)O)C(C)C)C(C)C)C(C)C)[C@@H](C)CC  MIC (NCCP 16284 carbapenem-resistant): 2 µM (≈ 8.01 µg/mL)
CC[C@H](C)[C@H](NC(=O)[C@H](Cc1c[nH]c2ccccc12)NC(=O)[C@@H](N)CCCCN)C(=O)N[C@H]1CSSC[C@@H](C(=O)N[C@@H](CCCNC(=N)N)C(=O)N[C@@H](Cc2c[nH]c3ccccc23)C(=O)N[C@@H](CCCNC(=N)N)C(=O)O)NC(=O)[C@H](Cc2ccc(O)cc2)NC(=O)[C@H]([C@@H](C)O)NC(=O)[C@H]([C@@H](C)CC)NC(=O)[C@H](Cc2c[nH]c3ccccc23)NC(=O)[C@H](CCCNC(=N)N)NC(=O)CNC(=O)[C@H](CCCNC(=N)N)NC(=O)[C@H](Cc2ccc(O)cc2)NC(=O)[C@H](Cc2c[nH]c3ccccc23)NC(=O)[C@H](CC(C)C)NC(=O)[C@H](CCCNC(=N)N)NC(=O)[C@H](CCCNC(=N)N)NC1=O  IC50 (bacterial growth; DH5α; 50% growth inhibition): 8.6 µM
CC(C)C[C@H](NC(=O)[C@H](CCCCN)NC(=O)OCC1c2ccccc2-c2ccccc21)C(=O)N[C@H](C(=O)N[C@@H](Cc1ccccc1)C(=O)N[C@@H](Cc1ccccc1)C(=O)N[C@@H](CCCCN)C(=O)NCC(=O)N[C@@H](Cc1ccccc1)C(=O)N[C@@H](C)C(=O)N[C@@H](Cc1c[nH]c2ccccc12)C(=O)N[C@@H](CC(N)=O)C(=O)N[C@H](C(=O)N[C@H]1CSSC[C@@H](C(=O)N[C@@H](Cc2c[nH]cn2)C(=O)N[C@@H](CCCNC(=N)N)C(=O)N[C@@H](CCCNC(=N)N)C(=O)N[C@@H](C)C(=O)N[C@@H](CC(N)=O)C(N)=O)NC(=O)[C@H](C(C)C)NC(=O)[C@H](CCCNC(=N)N)NC(=O)[C@H](C(C)C)NC(=O)CNC(=O)[C@H](CC(N)=O)NC(=O)[C@H](CCCNC(=N)N)NC(=O)[C@H](Cc2ccc(O)cc2)NC(=O)[C@H](C(C)C)NC1=O)C(C)C)C(C)C  EC50 (bactericidal activity; ATCC 25922; 24 h): 2.55 µM
CC[C@H](C)[C@H](NC(=O)[C@H](Cc1ccccc1)NC(=O)[C@@H](NC(=O)[C@H](CO)NC(=O)[C@@H](N)CCCNC(=N)N)[C@@H](C)CC)C(=O)N[C@@H](CCCCN)C(=O)N[C@@H](Cc1ccc(O)cc1)C(=O)N[C@@H](CCCCN)C(=O)N[C@@H](CO)C(=O)N[C@@H](CCCCN)C(=O)N1CCC[C@H]1C(=O)N[C@@H](Cc1ccccc1)C(=O)N[C@@H](CS)C(=O)N[C@@H](CCC(=O)O)C(=O)N[C@@H](CCCCN)C(=O)N[C@@H](CC(C)C)C(=O)N[C@@H](CC(C)C)C(=O)N[C@@H](CO)C(=O)N[C@@H](Cc1c[nH]c2ccccc12)C(=O)N[C@H](C(=O)N[C@@H](CCCCN)C(=O)N[C@@H](CO)C(=O)O)C(C)C  MBC (K12 MG1655): 32 µg/mL
C[C@@H](O)[C@H]1C(=O)N2C(C(=O)O)=C([C@H]3CCCO3)S[C@H]12  MIC fold reduction (checkerboard; carbapenem-resistant; concentration not given, together with: anionic gold nanoparticle 8 µg/mL; relative to: MIC alone over combination): 16 fold
C[C@@H](O)[C@H]1C(=O)N2C(C(=O)O)=C(S[C@@H]3CN[C@H](C(=O)N(C)C)C3)[C@H](C)[C@H]12  log10 CFU difference (neutropenic rat, lung infection; intravenous, 15 mg/kg every 12 h, first study): -0.14 and -0.19 and -0.47
C[C@@H](O)[C@H]1C(=O)N2C(C(=O)O)=C(S[C@@H]3CN[C@H](C(=O)N(C)C)C3)[C@H](C)[C@H]12  MIC fold increase (DH5a clone with KPC-137; relative to: empty vector strain): > 8 fold
CC[C@H](C)[C@H](N)C(=O)N[C@@H](CO)C(=O)N[C@@H](Cc1ccccc1)C(=O)N[C@@H](CC(C)C)C(=O)NCC(=O)N[C@@H](CO)C(=O)N[C@@H](CCCCN)C(=O)N[C@H](C(=O)N[C@H](C(=O)N[C@H](C(=O)N[C@@H](CC(C)C)C(=O)N[C@@H](CC(C)C)C(=O)N[C@@H](CCCCN)C(=O)N[C@@H](CCCNC(=N)N)C(=O)N[C@@H](CCCNC(=N)N)C(=O)N[C@@H](CCCNC(=N)N)C(=O)N[C@@H](CCCNC(=N)N)C(=O)N[C@@H](CCCNC(=N)N)C(=O)N[C@@H](CCCNC(=N)N)C(=O)N[C@@H](CCCNC(=N)N)C(N)=O)C(C)C)C(C)C)C(C)C  FICI (checkerboard; unit not given, together with: rifampicin; lower means synergy): 0.19
CC[C@@H](C)[C@@H](N)C(=O)N[C@@H](C(=O)N[C@H](Cc1ccc(O)cc1)C(=O)N[C@@H](C(=O)N[C@H](CCN)C(=O)N[C@H](CC(C)C)C(=O)N[C@H](CO)C(=O)N[C@H](CCN)C(=O)N[C@@H](C(=O)N[C@H](CCN)C(=O)N[C@H](Cc1c[nH]cn1)C(=O)N[C@H](CCN)C(=O)N[C@H](C)C(=O)N[C@H](CCN)C(=O)N[C@H](CCN)C(N)=O)[C@H](C)CC)[C@H](C)CC)[C@H](C)CC  biofilm reduction (crystal violet; ATCC 25922; 16 µg/mL, 24 h, 37 °C, established biofilm; relative to: untreated): 50%
CC[C@H](C)[C@H](NC(=O)[C@H](CCCNC(=N)N)NC(=O)[C@H](CCCNC(=N)N)NC(=O)[C@H](CCCNC(=N)N)NC(=O)[C@H](CCCNC(=N)N)NC(=O)[C@H](CC(C)C)NC(=O)[C@H](CCCNC(=N)N)NC(=O)[C@H](CO)NC(=O)[C@@H](N)CO)C(=O)N[C@H](C(=O)N[C@@H](CC(C)C)C(=O)N[C@@H](CCCNC(=N)N)C(=O)N[C@@H](CCCNC(=N)N)C(=O)N[C@@H](CCCNC(=N)N)C(=O)N[C@@H](CCCNC(=N)N)C(=O)N[C@@H](Cc1ccccc1)C(=O)N[C@@H](CO)C(=O)N[C@@H](C)C(=O)N[C@@H](Cc1ccc(O)cc1)C(N)=O)C(C)C  FICI (checkerboard; unit not given, together with: rifampicin; lower means synergy): 0.13
COc1ccc2c(ccc3oc([N+](=O)[O-])c(OC)c32)c1  MIC90 (REMA): > 32 µg/mL

Repeated from above:
CC[C@H](C)[C@H](N)C(=O)N[C@@H](CO)C(=O)N[C@@H](Cc1ccccc1)C(=O)N[C@@H](CC(C)C)C(=O)NCC(=O)N[C@@H](CO)C(=O)N[C@@H](CCCCN)C(=O)N[C@H](C(=O)N[C@H](C(=O)N[C@H](C(=O)N[C@@H](CC(C)C)C(=O)N[C@@H](CC(C)C)C(=O)N[C@@H](CCCCN)C(=O)N[C@@H](CCCNC(=N)N)C(=O)N[C@@H](CCCNC(=N)N)C(=O)N[C@@H](CCCNC(=N)N)C(=O)N[C@@H](CCCNC(=N)N)C(=O)N[C@@H](CCCNC(=N)N)C(=O)N[C@@H](CCCNC(=N)N)C(=O)N[C@@H](CCCNC(=N)N)C(N)=O)C(C)C)C(C)C)C(C)C  FICI (checkerboard; unit not given, together with: rifampicin; lower means synergy): 0.19
CC[C@@H](C)[C@@H](N)C(=O)N[C@@H](C(=O)N[C@H](Cc1ccc(O)cc1)C(=O)N[C@@H](C(=O)N[C@H](CCN)C(=O)N[C@H](CC(C)C)C(=O)N[C@H](CO)C(=O)N[C@H](CCN)C(=O)N[C@@H](C(=O)N[C@H](CCN)C(=O)N[C@H](Cc1c[nH]cn1)C(=O)N[C@H](CCN)C(=O)N[C@H](C)C(=O)N[C@H](CCN)C(=O)N[C@H](CCN)C(N)=O)[C@H](C)CC)[C@H](C)CC)[C@H](C)CC  biofilm reduction (crystal violet; ATCC 25922; 16 µg/mL, 24 h, 37 °C, established biofilm; relative to: untreated): 50%
CC[C@H](C)[C@H](NC(=O)[C@H](CCCNC(=N)N)NC(=O)[C@H](CCCNC(=N)N)NC(=O)[C@H](CCCNC(=N)N)NC(=O)[C@H](CCCNC(=N)N)NC(=O)[C@H](CC(C)C)NC(=O)[C@H](CCCNC(=N)N)NC(=O)[C@H](CO)NC(=O)[C@@H](N)CO)C(=O)N[C@H](C(=O)N[C@@H](CC(C)C)C(=O)N[C@@H](CCCNC(=N)N)C(=O)N[C@@H](CCCNC(=N)N)C(=O)N[C@@H](CCCNC(=N)N)C(=O)N[C@@H](CCCNC(=N)N)C(=O)N[C@@H](Cc1ccccc1)C(=O)N[C@@H](CO)C(=O)N[C@@H](C)C(=O)N[C@@H](Cc1ccc(O)cc1)C(N)=O)C(C)C  FICI (checkerboard; unit not given, together with: rifampicin; lower means synergy): 0.13
